Assay results from different studies.
Every numbered part comes from another study and shows a few of its results, in no order.
UniProt Q9BX84, sequence (whole entry, looked up): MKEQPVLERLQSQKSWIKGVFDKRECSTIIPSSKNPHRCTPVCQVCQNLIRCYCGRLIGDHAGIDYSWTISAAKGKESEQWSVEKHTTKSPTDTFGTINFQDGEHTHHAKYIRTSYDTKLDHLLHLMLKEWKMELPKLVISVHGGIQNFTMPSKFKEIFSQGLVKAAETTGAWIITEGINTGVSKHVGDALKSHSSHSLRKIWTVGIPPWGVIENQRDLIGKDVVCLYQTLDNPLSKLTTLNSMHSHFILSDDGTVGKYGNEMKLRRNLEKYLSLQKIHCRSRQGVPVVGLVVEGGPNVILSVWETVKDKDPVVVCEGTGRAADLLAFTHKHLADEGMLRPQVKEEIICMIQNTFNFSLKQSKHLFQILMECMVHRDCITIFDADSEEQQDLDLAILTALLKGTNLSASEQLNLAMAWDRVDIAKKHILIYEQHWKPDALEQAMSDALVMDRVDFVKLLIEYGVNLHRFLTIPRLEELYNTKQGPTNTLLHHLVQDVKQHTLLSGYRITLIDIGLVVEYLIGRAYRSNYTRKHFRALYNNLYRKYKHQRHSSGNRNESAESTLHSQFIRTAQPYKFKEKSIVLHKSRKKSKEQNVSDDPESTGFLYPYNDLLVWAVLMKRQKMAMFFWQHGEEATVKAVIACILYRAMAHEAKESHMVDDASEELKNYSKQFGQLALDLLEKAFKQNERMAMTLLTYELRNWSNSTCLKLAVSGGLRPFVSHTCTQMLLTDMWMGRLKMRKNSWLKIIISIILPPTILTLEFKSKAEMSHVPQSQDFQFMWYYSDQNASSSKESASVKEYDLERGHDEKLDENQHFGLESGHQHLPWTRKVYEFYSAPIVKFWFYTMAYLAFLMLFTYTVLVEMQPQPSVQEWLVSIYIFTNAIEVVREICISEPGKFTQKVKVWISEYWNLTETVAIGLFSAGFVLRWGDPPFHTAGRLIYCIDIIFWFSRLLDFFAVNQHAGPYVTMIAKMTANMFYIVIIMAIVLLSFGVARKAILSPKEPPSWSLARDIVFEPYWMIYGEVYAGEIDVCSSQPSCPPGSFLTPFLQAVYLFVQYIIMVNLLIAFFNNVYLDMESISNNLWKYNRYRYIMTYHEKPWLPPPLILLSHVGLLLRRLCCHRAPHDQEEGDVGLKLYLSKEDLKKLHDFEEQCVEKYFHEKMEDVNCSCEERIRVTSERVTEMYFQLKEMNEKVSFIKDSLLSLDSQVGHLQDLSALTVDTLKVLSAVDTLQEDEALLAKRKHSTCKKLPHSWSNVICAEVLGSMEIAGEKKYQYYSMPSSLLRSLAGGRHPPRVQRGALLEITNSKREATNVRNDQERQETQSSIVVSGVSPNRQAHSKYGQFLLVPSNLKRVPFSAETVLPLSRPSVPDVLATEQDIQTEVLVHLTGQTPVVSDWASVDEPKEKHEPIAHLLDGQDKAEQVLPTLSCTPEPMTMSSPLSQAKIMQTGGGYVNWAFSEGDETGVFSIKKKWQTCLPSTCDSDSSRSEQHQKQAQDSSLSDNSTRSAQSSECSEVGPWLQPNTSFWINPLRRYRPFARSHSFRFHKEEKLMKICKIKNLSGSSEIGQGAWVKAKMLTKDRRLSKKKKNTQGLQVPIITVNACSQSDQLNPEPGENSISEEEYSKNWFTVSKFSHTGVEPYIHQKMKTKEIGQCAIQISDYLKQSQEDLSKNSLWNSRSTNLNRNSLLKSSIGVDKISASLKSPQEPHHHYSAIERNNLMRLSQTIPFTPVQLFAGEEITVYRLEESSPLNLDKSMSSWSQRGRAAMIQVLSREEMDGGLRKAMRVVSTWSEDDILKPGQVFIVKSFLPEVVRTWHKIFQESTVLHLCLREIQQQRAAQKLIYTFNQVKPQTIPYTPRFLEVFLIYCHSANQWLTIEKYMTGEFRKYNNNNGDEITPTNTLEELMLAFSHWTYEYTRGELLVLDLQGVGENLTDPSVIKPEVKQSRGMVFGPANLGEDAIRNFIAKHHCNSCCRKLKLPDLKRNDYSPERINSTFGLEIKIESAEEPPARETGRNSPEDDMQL
UniProt Q13233, sequence (whole entry, looked up): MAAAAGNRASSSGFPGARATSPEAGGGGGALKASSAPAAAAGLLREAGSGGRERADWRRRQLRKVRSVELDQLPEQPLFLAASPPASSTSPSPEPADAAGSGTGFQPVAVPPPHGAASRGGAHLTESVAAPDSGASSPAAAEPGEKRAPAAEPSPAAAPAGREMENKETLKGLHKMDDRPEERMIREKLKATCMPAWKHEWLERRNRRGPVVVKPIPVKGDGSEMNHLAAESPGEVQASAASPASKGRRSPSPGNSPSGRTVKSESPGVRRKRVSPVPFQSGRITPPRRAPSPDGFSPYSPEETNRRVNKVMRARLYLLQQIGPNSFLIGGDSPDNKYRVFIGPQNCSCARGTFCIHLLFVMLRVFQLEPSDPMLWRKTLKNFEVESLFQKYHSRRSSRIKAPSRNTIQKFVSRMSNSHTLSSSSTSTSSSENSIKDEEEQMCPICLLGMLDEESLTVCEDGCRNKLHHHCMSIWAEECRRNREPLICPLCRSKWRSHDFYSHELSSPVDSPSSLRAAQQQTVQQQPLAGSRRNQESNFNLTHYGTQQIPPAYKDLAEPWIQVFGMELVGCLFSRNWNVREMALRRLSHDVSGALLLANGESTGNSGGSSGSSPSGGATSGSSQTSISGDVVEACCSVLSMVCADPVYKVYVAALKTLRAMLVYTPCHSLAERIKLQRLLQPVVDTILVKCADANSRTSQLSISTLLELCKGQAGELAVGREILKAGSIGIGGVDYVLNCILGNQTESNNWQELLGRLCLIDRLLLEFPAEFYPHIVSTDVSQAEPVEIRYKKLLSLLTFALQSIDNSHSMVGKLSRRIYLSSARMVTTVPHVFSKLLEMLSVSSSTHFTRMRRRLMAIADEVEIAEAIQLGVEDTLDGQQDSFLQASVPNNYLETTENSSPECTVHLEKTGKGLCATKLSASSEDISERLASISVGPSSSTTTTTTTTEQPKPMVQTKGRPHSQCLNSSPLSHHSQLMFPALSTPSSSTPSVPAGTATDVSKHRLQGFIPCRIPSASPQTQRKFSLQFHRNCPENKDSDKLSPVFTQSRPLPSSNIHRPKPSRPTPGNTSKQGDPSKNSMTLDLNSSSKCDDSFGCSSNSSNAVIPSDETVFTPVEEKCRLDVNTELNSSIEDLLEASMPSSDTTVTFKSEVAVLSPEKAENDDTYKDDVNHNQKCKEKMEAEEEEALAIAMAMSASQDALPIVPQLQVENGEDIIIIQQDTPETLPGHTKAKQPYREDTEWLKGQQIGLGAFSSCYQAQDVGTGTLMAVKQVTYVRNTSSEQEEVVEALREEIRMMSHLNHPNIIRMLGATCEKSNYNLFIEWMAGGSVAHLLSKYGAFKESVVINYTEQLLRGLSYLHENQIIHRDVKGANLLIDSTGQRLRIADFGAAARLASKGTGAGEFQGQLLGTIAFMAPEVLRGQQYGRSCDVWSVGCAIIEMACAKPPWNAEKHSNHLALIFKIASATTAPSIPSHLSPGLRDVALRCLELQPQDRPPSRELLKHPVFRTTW

Series 1 — technique: aptamer microarray, sandwich; molecule type: DNA with 2'F-ANA; matrix: in vitro; concentration: 200 nM; with: Cy3 exosite-II aptamer, 400 nM; reading: higher = stronger binding; sequence: GGTTGGTGTGGTTGG
Target: Prothrombin, mature alpha-thrombin (F2, Homo sapiens, UniProt P00734)
Notes: whole 15-mer aptamer, many near background
`2'F-ANA at 1 3 4 7 10 11 15` — result for “mean fluorescence intensity”: 60.2 a.u.
For `2'F-ANA at 5 6 10 11 13 14`, “mean fluorescence intensity” read 67.7 a.u.
Under “mean fluorescence intensity”, `2'F-ANA at 2 5 7 8 9 12 13` is recorded as 240 a.u.
Under “mean fluorescence intensity”, `2'F-ANA at 3 4 5 6 7 9 11` is recorded as 147 a.u.
For `2'F-ANA at 1 2 5 6 8 10 11`, “mean fluorescence intensity” read 48.1 a.u.
`2'F-ANA at 1 2 3 6 8 9 10 11 13` — result for “mean fluorescence intensity”: 61.9 a.u.
Under “mean fluorescence intensity”, `2'F-ANA at 5 7 8 10 11 13 14 15` is recorded as 49.7 a.u.
`2'F-ANA at 1 2 3 4 7 8 9 11` — result for “mean fluorescence intensity”: 206 a.u.

Series 2 — technique: protein-binding microarray; molecule type: double-stranded DNA, one strand shown; matrix: in vitro; concentration: 2200 nM top; notes: 60-bp whole probe; with: salmon DNA 0.4 mg/ml; baseline: random background probes; reading: higher = stronger binding; shared flanks, not repeated: GCCTAGCAC … GTCTTGATTCGCTTGACGCTGCTG
Target: Interferon regulatory factor 7, full length, phosphomimetic (IRF7, Homo sapiens, UniProt Q92985, residues 1-503, S471D/S472D/S475D/S476D/S477D/S483D/S484D/S487D)
Residues (chain): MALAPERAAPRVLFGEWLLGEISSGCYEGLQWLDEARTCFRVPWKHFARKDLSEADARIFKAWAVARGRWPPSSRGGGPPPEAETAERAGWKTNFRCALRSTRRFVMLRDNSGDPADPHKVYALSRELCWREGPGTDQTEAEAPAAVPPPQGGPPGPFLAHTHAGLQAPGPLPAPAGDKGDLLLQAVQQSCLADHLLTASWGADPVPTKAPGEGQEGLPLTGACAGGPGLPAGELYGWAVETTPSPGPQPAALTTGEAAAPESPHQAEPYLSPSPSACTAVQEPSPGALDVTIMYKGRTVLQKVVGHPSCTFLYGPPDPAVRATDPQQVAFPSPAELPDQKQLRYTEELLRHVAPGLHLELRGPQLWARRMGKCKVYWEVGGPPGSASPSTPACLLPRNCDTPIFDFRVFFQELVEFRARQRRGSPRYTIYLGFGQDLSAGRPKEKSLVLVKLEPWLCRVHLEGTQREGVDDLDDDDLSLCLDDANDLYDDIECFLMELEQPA
For `GACGGACTGGGGACTGGGGCCGTGCTA`, “fitted relative affinity” read -0.756 z-score.
Under “fitted relative affinity”, `TTAGGTATCGACTATCGGTAAGTGCTA` is recorded as 0.087 z-score.
`GACGATTTCGGGTATCGACACGTGCTA`: “fitted relative affinity” 2.76 z-score.
`GACGGACTGGGTAGCGGGACGTGCTAG` — result for “fitted relative affinity”: -1.12 z-score.
For `TCATTTCTGAATGCTCCCACTGTGCTA`, “fitted relative affinity” read 2.08 z-score.
`GACGGATTCGGGTTTCGGGACGTGCTA`: “fitted relative affinity” 3.26 z-score.
`TTAGGTATCGGGTATCGGTTAGTGCTA`: “fitted relative affinity” 0.572 z-score.
`TTAGGTTTCCATTCCCTTTAGTGCTAG`: “fitted relative affinity” 4.55 z-score.

Further values, each from its own experiment
Rela Rel homology region: Transcription factor p65, Rel homology region (Rela, Mus musculus, UniProt Q04207, residues 1-314)
UniProt Q04207, sequence (1-314, looked up): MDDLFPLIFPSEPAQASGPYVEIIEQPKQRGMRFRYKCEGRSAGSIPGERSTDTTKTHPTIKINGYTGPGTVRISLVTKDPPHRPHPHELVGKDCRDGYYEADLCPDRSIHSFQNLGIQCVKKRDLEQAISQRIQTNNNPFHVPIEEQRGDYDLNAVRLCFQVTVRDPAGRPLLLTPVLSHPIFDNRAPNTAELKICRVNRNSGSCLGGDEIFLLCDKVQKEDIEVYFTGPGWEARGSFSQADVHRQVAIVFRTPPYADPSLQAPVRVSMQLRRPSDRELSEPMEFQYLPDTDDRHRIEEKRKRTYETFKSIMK
`CCOC(=O)[C@@H]1CSCC(=O)N[C@@H](CC)C(=O)N(C)[C@@H](C)C(=O)N[C@@H](CC(C)C)C(=O)N2CCC[C@@H]2C(=O)N(CC)CC(=O)N[C@@H](CC(C)C)C(=O)N(C)[C@@H](C)C(=O)N[C@@H](CC(C)C)C(=O)N1C` gave a logD of 1.63 (hydrocarbon/water).
For `Nc1cnc(N2CCc3cc(S(=O)(=O)Nc4c(F)cc(Cl)cc4F)cc(N4CCCC4=O)c32)nc1`, the remaining binding was 100% (Mitogen-activated protein kinase kinase kinase 1 (MAP3K1, Homo sapiens, UniProt Q13233); cell-free assay, competition with immobilised ligand; 1 µM).
With `AGGAATTCCA` the dissociation half-life was 1 s (Rela Rel homology region; surface plasmon resonance; double-stranded DNA, one strand shown, in vitro; 1 nM to 1 µM, 10-bp κB site, 1:1 kinetic fit, 10 °C; higher = slower dissociation).
The remaining binding of `CCCOc1ccc([C@H]2[C@H](C(=O)O)[C@@H](c3ccc4c(c3)OCO4)CN2CC(=O)Nc2c(CC)cccc2CC)cc1` is reported as 94% (Transient receptor potential cation channel subfamily M member 6 (TRPM6, Homo sapiens, UniProt Q9BX84); cell-free assay, competition with immobilised ligand; 1 µM).
`GGAAATTCCC` gave a dissociation half-life of 45 s (Rela Rel homology region; surface plasmon resonance; double-stranded DNA, one strand shown, in vitro; 1 nM to 1 µM, 10-bp κB site, 1:1 kinetic fit, 10 °C; higher = slower dissociation).

Excerpt of the above (further values, each from its own experiment):
`CCOC(=O)[C@@H]1CSCC(=O)N[C@@H](CC)C(=O)N(C)[C@@H](C)C(=O)N[C@@H](CC(C)C)C(=O)N2CCC[C@@H]2C(=O)N(CC)CC(=O)N[C@@H](CC(C)C)C(=O)N(C)[C@@H](C)C(=O)N[C@@H](CC(C)C)C(=O)N1C` gave a logD of 1.63 (hydrocarbon/water).
